# Measurements collected from several papers.
# Every numbered part comes from another study and shows a few of its results, in no order.

# Study 1 — method: protein-binding microarray; molecule type: double-stranded DNA, one strand shown; sample: in vitro; concentration: 250 nM; notes: 60-bp whole probe; together with: salmon DNA 0.4 mg/ml; reference: random background probes; direction: higher = stronger binding; constant ends, left off below: GCCTAGCAC … GTCTTGATTCGCTTGACGCTGCTG
# Target: Interferon regulatory factor 7, full length, phosphomimetic (IRF7, Homo sapiens, UniProt Q92985, residues 1-503, S101K/S471D/S472D/S475D/S476D/S477D/S483D/S484D/S487D)
# Chain of UniProt Q92985 (whole entry, unmodified, looked up): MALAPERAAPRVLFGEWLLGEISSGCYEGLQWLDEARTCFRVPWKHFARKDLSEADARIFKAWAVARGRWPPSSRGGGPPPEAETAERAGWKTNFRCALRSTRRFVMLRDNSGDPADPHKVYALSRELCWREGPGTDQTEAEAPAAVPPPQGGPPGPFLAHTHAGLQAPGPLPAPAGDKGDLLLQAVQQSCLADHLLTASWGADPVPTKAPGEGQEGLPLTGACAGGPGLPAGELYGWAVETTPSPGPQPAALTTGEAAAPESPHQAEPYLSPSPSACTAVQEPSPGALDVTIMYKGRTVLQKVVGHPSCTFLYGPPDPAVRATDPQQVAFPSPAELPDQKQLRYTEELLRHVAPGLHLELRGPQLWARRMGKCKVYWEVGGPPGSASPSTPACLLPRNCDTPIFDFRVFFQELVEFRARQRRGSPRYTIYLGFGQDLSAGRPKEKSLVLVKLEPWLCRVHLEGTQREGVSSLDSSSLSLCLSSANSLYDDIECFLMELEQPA
Sequence,log fluorescence [z-score]
ACCGATTTCCTTCACCCACTGTGCTAG,1.21
TCACGTGTTTTTCTCCTACTGTGCTAG,0.336
GCCGGTTTCGACTTTCGGGACGTGCTA,11.4
TTAAAACTGAGTATCGATTAGTGCTAG,0.861
TTTCCTTTATGTACTCTCTACGTGCTA,2.41
TTAGGTTTCGACTATCGGTTAGTGCTA,5.33
TCAAATGATTGGTTGAAACTGTGCTAG,-0.269
GAAGGACTGGGGACTGGGGACGTGCTA,-0.816
TCATTTGTTTTTTTCTAACTGTGCTAG,2.02
TCAAATTGTCTTTTCACACTGTGCTAG,0.161
GTCCCTATCTCCTCACAGACCGTGCTA,3.33
TTAGGACGGCTTCTCCTTTAGTGCTAG,-0.143
GAGGGTATCGGGACTGGGGACGTGCTA,-0.4
TCACCTCTCCTCTCAGGAACTGTGCTA,-0.249
TTAGGTTTACTTATCCTTTAGTGCTAG,0.402
TTAGAACTGGGGTGTCGATTAGTGCTA,-0.451
TCGTTTCCCAAGTTTATACCTGTGCTA,5.71
GACGATTTCAGTCTCGAGATGTGCTAG,1.17
GACGGTATCCATTTCCTGACGTGCTAG,1.03

# Study 2 — method: RNAcompete; molecule type: RNA; sample: in vitro; concentration: 20 nM; notes: 7-mer, probes averaged, single round; reference: mean of 7-mers; direction: higher = stronger binding
# Target: PABPC1L2, full length, GST fusion (mouse, UniProt A0ABA7IW68)
# Target sequence (chain): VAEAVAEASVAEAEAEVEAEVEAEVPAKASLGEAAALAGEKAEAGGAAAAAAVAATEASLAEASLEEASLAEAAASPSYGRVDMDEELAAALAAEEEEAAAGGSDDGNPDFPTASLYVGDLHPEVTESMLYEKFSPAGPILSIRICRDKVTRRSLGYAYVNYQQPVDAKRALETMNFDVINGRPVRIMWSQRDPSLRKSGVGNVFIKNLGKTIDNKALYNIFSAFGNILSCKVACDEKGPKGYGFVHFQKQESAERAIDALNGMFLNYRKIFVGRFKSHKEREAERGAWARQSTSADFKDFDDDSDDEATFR
Sequence,7-mer Z-score
UCGCCUA,-0.362
UGCGUUG,-0.175
AAUUCUG,-0.0863
GCAGAAA,1.48
UAACGCU,-0.188
UACGAGA,0.166
UGAUAGG,-0.05
AAACCGG,1.06
AUAAUGC,0.0334
GAUCGUG,-0.307
GUUGUGC,-0.242
GUAACAC,-0.0536
CUUCCCG,-0.454
UGUGCGG,-0.151
GGCGGCU,0.0551
CGGCGGC,-0.126
UAAAUAU,1.74
UAUCGAA,-0.0645
UGGUACC,-0.26
AGGUGCG,0.157
GCAUACG,-0.0645
GGGAAAG,0.35
UUGUACC,-0.458
AGGUAGG,0.314
UUUAUGA,0.196

# Study 3 — method: competition protein-binding microarray; molecule type: double-stranded DNA, one strand shown; sample: in vitro; concentration: 2 µM; together with: Pho4 competitor, 0.05 µM; direction: higher = stronger binding
# Target: Centromere-binding protein 1, full length, His-tagged (CBF1, Saccharomyces cerevisiae, UniProt P17106, residues 1-351)
# Chain of UniProt P17106 (whole entry, looked up): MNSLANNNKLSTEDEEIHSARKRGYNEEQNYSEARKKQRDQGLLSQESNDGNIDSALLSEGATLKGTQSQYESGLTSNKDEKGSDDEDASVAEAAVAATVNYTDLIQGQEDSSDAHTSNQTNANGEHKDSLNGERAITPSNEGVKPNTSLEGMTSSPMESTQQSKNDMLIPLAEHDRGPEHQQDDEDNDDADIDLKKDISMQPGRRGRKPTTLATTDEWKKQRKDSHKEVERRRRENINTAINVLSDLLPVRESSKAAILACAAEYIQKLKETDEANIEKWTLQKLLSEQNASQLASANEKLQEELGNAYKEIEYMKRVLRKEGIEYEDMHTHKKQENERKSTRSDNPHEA
# Notes: whole 60-bp probe, lowest competitor level
Sequence,fluorescence intensity
TTATGAACTGCTACCCACGTGTAACCAATTTTTTTAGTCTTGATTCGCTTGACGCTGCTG,1190 a.u.
TTTTCTTTCGATTAGCACGCACACACATCACATAGAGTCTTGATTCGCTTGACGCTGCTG,98.2 a.u.
CTAACGAAGGTTTGACCTGTGGGTGACAAGCCAAGTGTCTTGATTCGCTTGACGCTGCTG,73.3 a.u.
TTGCAATACACTCGGCACGCACTTTATCACTGGGCTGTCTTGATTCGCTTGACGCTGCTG,78.7 a.u.
CTTATCCGAAGTTGAAATGTGACGGCTGCAATGGATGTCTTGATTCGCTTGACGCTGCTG,74.3 a.u.
TTGAACATAGAAGACCGCGTGATGGATTTTAGTGCGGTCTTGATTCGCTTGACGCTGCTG,312 a.u.
TGCGCAACAACTTGCCAGGTGGGTGTATGTCTAGAAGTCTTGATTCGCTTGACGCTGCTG,55.3 a.u.
CACATCCGGGTTCGTCACACGCGAAAGGCTTCTCAAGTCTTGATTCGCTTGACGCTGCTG,76.4 a.u.
TACGAAAAACAGAGAAACGTGTCGGTAGCATCCGATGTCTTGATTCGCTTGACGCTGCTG,98.6 a.u.
CGTTCTTGGGGACACCGCGTGCGATGCTCAGGATCGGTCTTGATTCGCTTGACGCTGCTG,63.7 a.u.
CTTGTACTTCAATCTCACGTTTCTCCATATGAGTCTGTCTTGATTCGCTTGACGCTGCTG,135 a.u.
AAATCATCTCTTTGTCACGTGACTCGAACCTAGCGGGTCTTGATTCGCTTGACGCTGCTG,25000 a.u.
AGAGGGTAGCTTGCTGACATGCAGACCTCTCCCCGGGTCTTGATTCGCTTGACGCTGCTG,58.1 a.u.
ACAGCCACTGGCGGCCGCGTGCTTCCTCCCCTCCCTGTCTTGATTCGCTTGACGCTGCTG,81.1 a.u.
TTTCATGGACTTTTTCACGTGGTCGTTGCCATTTGTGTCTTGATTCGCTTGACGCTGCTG,1050 a.u.
TTGGGGCAGATACTTCGTGTGACAGTGGCCAATTCAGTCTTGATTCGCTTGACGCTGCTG,62.5 a.u.
ATCCCATTGGCAAATCACCTGTTCCGGCTGCTTGATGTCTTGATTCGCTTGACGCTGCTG,188 a.u.
AAATTACTAAGTTGGAAAGTGGGTGACGCCGTATGAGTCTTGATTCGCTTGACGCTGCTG,63 a.u.
CGATCAAGCGACCTACACGTGCTTTCAAGGCGCATTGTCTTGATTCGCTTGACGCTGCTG,1190 a.u.

# Study 4 — method: protein binding microarray; molecule type: double-stranded DNA, one strand shown; sample: in vitro; concentration: not given; reference: not given; direction: higher = stronger binding
# Target: Histone acetyltransferase KAT6A, winged helix 1, GST fusion (KAT6A, Homo sapiens, UniProt Q92794, residues 1-85)
# Notes: 8-mer, flanks averaged, mean of 2 arrays, mostly near background
# Construct (chain): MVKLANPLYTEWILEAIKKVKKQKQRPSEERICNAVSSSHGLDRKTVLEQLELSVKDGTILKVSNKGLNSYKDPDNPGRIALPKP
Sequence,E-score
AGTTTACC,-0.103
CTATGACC,-0.0247
CGCGACCG,0.412
CGTCGTAG,0.101
GTGACAGA,-0.0693
AGTCACCA,-0.133
GAAACCCA,-0.131
GAAAAAGA,-0.124
CAATATGA,-0.164
CCCGACAA,0.116
GCTCTATA,-0.018
GGCCTTCA,0.00951
CCAGCACC,-0.0559
AAGTTTCC,-0.204
AGTGTTCC,-0.0425
GACAATGA,-0.108
GAATTGTC,-0.151
ATGCTCTC,-0.0847
AGCATGGA,-0.099
AGCCTCAA,-0.213

# Some of these lines once more (study 4):
Sequence,E-score
CCCGACAA,0.116
GCTCTATA,-0.018
GGCCTTCA,0.00951
CCAGCACC,-0.0559
AAGTTTCC,-0.204
AGTGTTCC,-0.0425
GACAATGA,-0.108
GAATTGTC,-0.151
